Experimental data of several laboratories.
Numbers after ± are the reported error.

Compound	species	matrix	route	dose	time	setting	tissue uptake [%ID/g]
C=Cc1cc(O)cc2nc(-c3ccc(O)c([76Br])c3)oc12	female C57BL/6 mouse	muscle	–	–	6 h	high dose	0.03 ± 0.01
COc1cc(C(=O)NCCOCCOCCOCCNC(=O)c2ccc([18F])nc2)ccc1NC(=O)C1NC(CC(C)(C)C)C(C#N)(c2ccc(Cl)cc2F)C1c1cccc(Cl)c1F (stereo not shown)	athymic male mice, HepG2 xenograft	small intestine	–	–	4 h	–	1.89 ± 0.79
CCCC[C@H](NC(=O)CCOCCOCCNC(=O)CN1CCN(CC(=O)O)CCN(CC(=O)O)CCN(CC(=O)O)CC1)C(=O)N[C@H]1CC(=O)NCCCC[C@@H](C(N)=O)NC(=O)[C@H](Cc2c[nH]c3ccccc23)NC(=O)[C@H](CCCNC(=N)N)NC(=O)[C@@H](Cc2ccccc2)NC(=O)[C@H](Cc2c[nH]cn2)NC1=O [gallium-68 labelled]	C57BL/6J mice male B16-F10 tumour	bone	–	–	1 h post injection	unblocked	0.2 ± 0.1
N=C(N)NCc1ccc(C(=O)NCCCC[C@H](NC(=O)N[C@@H](CCC(=O)O)C(=O)O)C(=O)O)cc1[211At]	SCID mouse, PC-3 xenografts	brain	–	–	21 h	–	0.04 ± 0.02
CN[C@](C)(C[18F])C(=O)O	SCID mouse SK-OV-3 xenograft	muscle	–	–	60 min post injection	–	1.3 ± 0.2
C[C@]12CC[C@H](OCC[18F])C[C@H]1CC[C@@H]1[C@@H]2CC[C@]2(C)[C@@H](c3ccc(=O)oc3)CC[C@]12O	male BALB/c nude mice, HepG2 xenograft	kidney	intravenous	7.4 MBq	120 min	–	3.21 ± 0.57
N=C(N)NCc1ccc(C(=O)NCCCC[C@H](NC(=O)N[C@@H](CCC(=O)O)C(=O)O)C(=O)O)cc1[131I]	SCID mouse, PC-3 xenografts	blood	–	–	1 h	–	0.73 ± 0.13
CCNc1cc2[o+]c3cc(NCC)c(C)cc3c(-c3ccccc3C(=O)OCCOCC[18F])c2cc1C	rat	mandibular gland	–	–	15 min	–	1.74 ± 0.5
O=C(O)CC[C@H](NC(=O)O[C@@H](CCCCNC(=O)c1ccc([18F])cc1)C(=O)O)C(=O)O	mouse, PC-3 PIP/flu xenografts	fat	–	–	60 min	–	0.15 ± 0.05
N=C(N)NCc1ccc(C(=O)NCCCC[C@H](NC(=O)CCCCCCC(=O)NCCCC[C@H](NC(=O)N[C@@H](CCC(=O)O)C(=O)O)C(=O)O)C(=O)O)cc1[131I]	SCID mouse, PC-3 xenografts	liver	–	–	1 h	–	5.16 ± 3.81
COc1cc2ncnc(Oc3cccc(N[11C](=O)Nc4cc(C(C)(C)C(F)(F)F)on4)c3)c2cc1OC	Balb/c nude mouse, female, A375 melanoma xenograft	blood	–	6.6 MBq	60 min	–	1.31 ± 0.02
N=C(N)NCc1ccc(C(=O)NCCCC[C@H](NC(=O)CCCCCCC(=O)NCCCC[C@H](NC(=O)N[C@@H](CCC(=O)O)C(=O)O)C(=O)O)C(=O)O)cc1[211At]	SCID mouse, PC-3 xenografts	heart	–	–	1 h	–	0.84 ± 0.27
O=C(c1ccc(F)cc1)C1CCN(C2Cc3c(cccc3OCC[18F])CC2O)CC1 (single isomer, unassigned; (-))	Sprague-Dawley rat, male	bone	intravenous	dose not given	120 min	–	0.537 ± 0.035

A few entries again:
Compound	species	matrix	route	dose	time	setting	tissue uptake [%ID/g]
CCCC[C@H](NC(=O)CCOCCOCCNC(=O)CN1CCN(CC(=O)O)CCN(CC(=O)O)CCN(CC(=O)O)CC1)C(=O)N[C@H]1CC(=O)NCCCC[C@@H](C(N)=O)NC(=O)[C@H](Cc2c[nH]c3ccccc23)NC(=O)[C@H](CCCNC(=N)N)NC(=O)[C@@H](Cc2ccccc2)NC(=O)[C@H](Cc2c[nH]cn2)NC1=O [gallium-68 labelled]	C57BL/6J mice male B16-F10 tumour	bone	–	–	1 h post injection	unblocked	0.2 ± 0.1
N=C(N)NCc1ccc(C(=O)NCCCC[C@H](NC(=O)N[C@@H](CCC(=O)O)C(=O)O)C(=O)O)cc1[211At]	SCID mouse, PC-3 xenografts	brain	–	–	21 h	–	0.04 ± 0.02
